Measured values gathered from unrelated publications.
Protocols differ between the studies behind these lines.
Matrix: plasma

The MRT of `C[C@@H](CO)NC(=O)c1cc(-c2ccc(Cl)cc2)nn(-c2cnn(C)c2)c1=O` is reported as 4.7 h (male Wistar rat; intravenous).
`Cc1cc(/C=C/C#N)cc(C)c1Oc1nc(NC2CCN(Cc3ccc(S(C)(=O)=O)cc3)CC2)nc2ncccc12` gave an MRT(0-t) of 1.17 h (Sprague-Dawley rat; intravenous, 2 mg/kg).
With `OC1(C(F)(F)F)CCN(c2nc(Nc3ccnc(C(F)(F)F)c3)nc(-c3cccc(C(F)(F)F)n3)n2)C1` (centres unmarked) the MRT(0-inf) was 20.3 h (Sprague-Dawley rat; intravenous, 1 mg/kg).
With `O=c1c(-c2ccc(Cl)c(CN3CCOCC3)c2)coc2cc(O)ccc12` the MRT was 2.48 h (male Sprague-Dawley rat; oral, 10 mg/kg).
`CC1(C)C(NC(=O)C(=NOC2(C(=O)O)CCC2)c2csc(N)n2)C(=O)N1OS(=O)(=O)O` (centres unmarked) gave an MRT of 0.27 h (rat; intravenous, 10 mg/kg, single dose).
`CC(C)(C)C(=O)Nc1ccc2[nH]c(CN3CCC(N(CCCN4CCOCC4)CC4OC(n5cnc6c(N)ncnc65)C(O)C4O)CC3)nc2c1` (centres unmarked) gave an MRT(0-t) of 1.42 h (male Sprague-Dawley rat; intraperitoneal, 20 mg/kg).
With `COc1cc(-c2cc(=O)c3ccc(OCCCn4c(Cl)nc5ccccc54)cc3o2)cc(OC)c1OC` the MRT(0-t) was 2.76 h (male Sprague-Dawley rat; intravenous, 10 mg/kg).
For `CCC(CC)n1c(Cc2ccco2)nc2cc(C(=O)N[C@@H](CC(=O)O)c3ccccc3)ccc21`, the MRT(0-t) was 2.24 h (male Sprague-Dawley rat; intraperitoneal, 10 mg/kg).
The MRT of `CCCCC(=O)Nc1ccc(-c2ccc3ncn(CCC)c(=O)c3c2)cn1` is reported as 1.09 h (male rat; oral, 10 mg/kg).
With `CCC(CC)n1c(Cc2cccs2)nc2cc(C(=O)N[C@@H](CC(=O)O)c3ccccc3)ccc21` the MRT(0-inf) was 2.45 h (male Sprague-Dawley rat; intraperitoneal, 10 mg/kg).
The MRT(0-t) of `Cc1cc2c(cc1O)C=C1C=CC(=O)C(C)(C)[C@H]1CC2` is reported as 4.81 h (male Sprague-Dawley rat; oral, 20 mg/kg).

Repeated from above:
With `CCC(CC)n1c(Cc2cccs2)nc2cc(C(=O)N[C@@H](CC(=O)O)c3ccccc3)ccc21` the MRT(0-inf) was 2.45 h (male Sprague-Dawley rat; intraperitoneal, 10 mg/kg).
